Measured values of several laboratories.
Numbered parts are unrelated; each lists some results of a single study. Positions count from the first letter of the parent shown.

Block 1 — method: RNAcompete; form: RNA; matrix: in vitro; concentration: 20 nM; notes: 7-mer, probes averaged, single round; reference: mean of 7-mers; direction: higher = stronger binding; measurement: 7-mer Z-score
Target: PABPC1L2, full length, GST fusion (mouse, UniProt A0ABA7IW68)
Target sequence (chain): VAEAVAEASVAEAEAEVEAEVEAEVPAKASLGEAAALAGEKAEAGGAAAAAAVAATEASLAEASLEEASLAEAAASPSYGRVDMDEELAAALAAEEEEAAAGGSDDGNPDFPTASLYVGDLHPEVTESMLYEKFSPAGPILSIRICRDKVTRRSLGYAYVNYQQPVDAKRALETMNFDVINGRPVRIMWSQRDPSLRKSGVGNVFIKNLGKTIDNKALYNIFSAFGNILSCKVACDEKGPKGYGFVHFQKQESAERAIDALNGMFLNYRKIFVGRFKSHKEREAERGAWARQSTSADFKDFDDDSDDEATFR
CUGUGAU: -0.302
UGUACCU: -0.329
GGAAAAC: 1.67
UCGCUAG: -0.324
UGUAAGA: -0.0228
AUGCACC: -0.0663
ACACUUU: -0.0663
AAGUAGA: 0.528
UCCUAUC: -0.369
GCUACUC: -0.217
GACAAUC: -0.0464
AUGAGCG: 0.0134
ACUCGUC: -0.418
UCGCGAU: -0.298
UUGCCCG: -0.385
AAUUGUA: 0.175
UCGAGCG: -0.242
GGGCGGA: 0.784
GUGCGGG: 0.124
GGAUGAC: -0.0246
CCGUCUA: -0.316

Block 2 — target: CCND1, cyclin fold, Cln2 fusion (human); method: yeast growth competition, sequencing; matrix: yeast; notes: weak parent motif; reference: not given; direction: higher = stronger binding; measurement: normalised enrichment score
Parent: E2F1 docking peptide (human); PPVKRRLDLETDH
T11M: 0.304
L7R: -0.278
H13A: 0.572
H13G: 1.13
L7V: 0.101
D12E: 0.355
T11S: 0.673
D8N: 1.13
V3A: 0.879
P1D: 0.352
V3Q: 0.244
T11I: 0.0939
E10G: 0.863
V3G: -0.235
V3L: 0.384
R5I: 0.112
P2N: 0.354
T11W: 0.673
R6K: -0.0497
R5H: 0.496
L7D: 0.522
R5E: 0.893
D12T: 0.652
D12H: 0.149
R6C: 0.495

Block 3 — method: aptamer microarray, sandwich; form: DNA with 2'F-ANA; matrix: in vitro; concentration: 200 nM; together with: Cy3 exosite-II aptamer, 400 nM; direction: higher = stronger binding; measurement: mean fluorescence intensity; oligonucleotide: GGTTGGTGTGGTTGG
Target: Prothrombin, mature alpha-thrombin (F2, Homo sapiens, UniProt P00734)
Notes: whole 15-mer aptamer, many near background
2'F-ANA at 2 3 5 6 9 10 11 14: 55.7 a.u.
2'F-ANA at 1 2 3 4 5 11 13 15: 52.4 a.u.
2'F-ANA at 1 2 3 4 6 8 9 10 11 12 13 14 15: 55.7 a.u.
2'F-ANA at 2 3 4 5 10: 52.4 a.u.
2'F-ANA at 1 7 12: 385 a.u.
2'F-ANA at 2 3 4 6 7 9 13 14: 216 a.u.
2'F-ANA at 2 5 7 8 9 15: 82.5 a.u.
2'F-ANA at 1 3 10 11 12 13 14: 60.1 a.u.
2'F-ANA at 1 2 3 5 7 8 9 10 11 12 15: 51.4 a.u.
2'F-ANA at 2 3 6 7 8 9 14 15: 364 a.u.
2'F-ANA at 2 3 4 5 8 11 12: 193 a.u.
2'F-ANA at 3 4 8 10 13 14 15: 190 a.u.
2'F-ANA at 1 2 3 5 6 7 8 9 10 12 15: 80.3 a.u.
2'F-ANA at 1 4 8 10 11 12 15: 57.4 a.u.
2'F-ANA at 3 4 5 8 9 10 12 13 14: 81.4 a.u.
2'F-ANA at 1 4 10 11 15: 64.3 a.u.
2'F-ANA at 6 7 8 10 13: 148 a.u.
2'F-ANA at 5 8 15: 110 a.u.
2'F-ANA at 3 7 8 10 11 13 15: 442 a.u.
2'F-ANA at 1 4 6 8 13: 83.3 a.u.
2'F-ANA at 2 3 4 7 8 11 12 14 15: 436 a.u.
2'F-ANA at 1 3 7 9 11 13 14: 87 a.u.
2'F-ANA at 2 3 12 14: 451 a.u.

Block 4 — method: DHFR PCA, dose-response; matrix: yeast; notes: Hill fit, not affinity; together with: (+)-ABA, dose series; direction: lower = more sensitive; measurement: ABA EC50
Target: ABI1, truncated, D143A, DHFR fusion (Arabidopsis thaliana, UniProt P49597)
Parent: PYL1, truncated, DHFR fusion (Arabidopsis thaliana, UniProt Q8VZS8); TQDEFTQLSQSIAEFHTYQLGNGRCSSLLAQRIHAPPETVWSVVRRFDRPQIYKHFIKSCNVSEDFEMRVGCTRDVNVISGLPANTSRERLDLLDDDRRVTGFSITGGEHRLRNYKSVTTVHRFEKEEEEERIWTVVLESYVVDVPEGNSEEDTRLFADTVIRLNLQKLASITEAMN
G108P: 2330 µM
N85Y: 51.3 µM
Y141C: 1140 µM
T101L: 25.4 µM
S87R: 2.08 µM
Q2F: 18.3 µM
G108F: 1930 µM

Block 5 — target: CREB5, bZIP domain (human); method: DHFR protein complementation; matrix: yeast; reference: wild-type JUN-FOS pair; direction: higher = stronger binding; measurement: binding fitness
Notes: single substitutions, most at no-binding floor
Parent: JUN, bZIP domain (human); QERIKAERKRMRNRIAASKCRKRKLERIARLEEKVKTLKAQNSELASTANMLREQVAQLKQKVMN; partner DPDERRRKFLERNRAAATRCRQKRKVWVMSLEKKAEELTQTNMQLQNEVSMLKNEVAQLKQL
T37D: -0.286 natural log
A46Q: -0.245 natural log
M51A: -0.154 natural log
A57N: -0.3 natural log
K34P: -1.41 natural log
S43A: -0.132 natural log
K36T: -0.466 natural log
A29S: -0.382 natural log
E32I: -0.623 natural log
V56H: -1.06 natural log
E32Y: -0.754 natural log
E33P: -1.33 natural log

Block 6 — method: protein binding microarray; form: double-stranded DNA, one strand shown; matrix: in vitro; concentration: not given; reference: not given; direction: higher = stronger binding; measurement: E-score
Target: Histone acetyltransferase KAT6A, winged helix 2, GST fusion (KAT6A, Homo sapiens, UniProt Q92794, residues 85-181)
Notes: 8-mer, flanks averaged, mean of 2 arrays, mostly near background
Construct (chain): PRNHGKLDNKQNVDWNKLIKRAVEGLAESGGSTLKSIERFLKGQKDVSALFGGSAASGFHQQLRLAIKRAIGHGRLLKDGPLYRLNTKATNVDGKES
CGGAGTAC: -0.0339
AGACTGCC: -0.0301
GGCGATAA: -0.0366
AATTGTTG: 0.0366
AGTGGACG: 0.0215
AGTATCAA: 0.0863
CCTGTCAG: -0.0235
AGACAGGG: -0.0349
AGCATGAG: -0.0468
CGTCAGGA: -0.054
ATGGCGTA: -0.0888
AGATACTC: -0.104
ACAGCAAC: 0.137
AAGCATGA: 0.165
TAAAGATA: -0.0216
CCGTAGAA: -0.0575

Block 7 — method: RNA Bind-n-Seq; form: RNA; matrix: in vitro; concentration: 200 nM; notes: whole 134-nt RNA, ends assumed; together with: 150 mM KCl; reference: input library; direction: higher = stronger binding; measurement: log2 enrichment
Target: Ras GTPase-activating protein-binding protein 1, full length (G3BP1, Homo sapiens, UniProt Q13283)
Chain of UniProt Q13283 (whole entry, looked up): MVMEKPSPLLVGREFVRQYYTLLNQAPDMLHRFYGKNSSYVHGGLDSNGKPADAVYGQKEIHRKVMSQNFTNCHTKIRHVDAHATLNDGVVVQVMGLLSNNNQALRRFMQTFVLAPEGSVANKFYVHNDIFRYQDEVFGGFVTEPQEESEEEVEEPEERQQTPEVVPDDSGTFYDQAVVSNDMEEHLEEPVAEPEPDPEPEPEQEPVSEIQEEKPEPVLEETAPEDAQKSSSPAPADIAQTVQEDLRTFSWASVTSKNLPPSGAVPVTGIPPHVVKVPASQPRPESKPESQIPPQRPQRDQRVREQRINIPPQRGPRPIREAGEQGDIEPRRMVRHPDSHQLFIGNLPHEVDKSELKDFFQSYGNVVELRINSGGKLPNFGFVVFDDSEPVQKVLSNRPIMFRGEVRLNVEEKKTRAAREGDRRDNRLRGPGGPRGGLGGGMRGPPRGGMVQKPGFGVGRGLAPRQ
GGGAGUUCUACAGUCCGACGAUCUCCUGUGCUACACAUCGUAUGUACCGAAUCAAAUUUUUUUAAACCCAAACCCCCCCAAAAAAGUAUUAUGUUACGCCGUUCGGAUCUGCAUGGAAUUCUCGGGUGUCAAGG: -0.0507
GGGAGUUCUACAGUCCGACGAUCGGAAGGGGGCUUGCGCCACGGCAGUGAAUCUUCAUGGAUCUUCAUGCAGCCAUACAAACCCUGGUUCCAACAGAAUGGUGAAUUUUCGACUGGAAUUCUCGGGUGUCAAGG: -1.37
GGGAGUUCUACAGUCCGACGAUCCCUCAAGUCCUGUGCUACACAUCGUAUGUACCGAAUCGGGUGGUGGGUGGGGAAAGUAUUAUGUUACGCCGUUCGGAUCUGCACUUCCAGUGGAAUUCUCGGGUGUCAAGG: 1.03
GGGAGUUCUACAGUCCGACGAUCUCCUGUGCUACACAUCGUAUGUACCGAAUCGGGGUUUUUGGGGUUUUUUUGGGGUGGGGAAAGUAUUAUGUUACGCCGUUCGGAUCUGCAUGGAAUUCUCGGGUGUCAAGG: 0.825
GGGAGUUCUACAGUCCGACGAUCCAGCAGUGAGUCUCUUCAGAAAACCCUUUUCUACAGUUAGGGUUGAGUUACUUCCUAUCAAGCCAGUACGUGCUAACAGGCUCAAUAUUCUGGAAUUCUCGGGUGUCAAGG: -1.26
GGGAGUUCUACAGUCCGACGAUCAAGUCCUGUGCUACACAUCGUAUGUACCGAAUCGGUUUGGUUUUUGGAAAAAAAGGAAAGUAUUAUGUUACGCCGUUCGGAUCUGCACUUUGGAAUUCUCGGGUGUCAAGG: -1.19
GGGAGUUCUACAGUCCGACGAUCUUGGGUUCAAUAUACGGAGAGUGCCCUGUGCCAAAGCCACGAGUUGAUCGUCCAAGAAAAGUUCCUGUGAUACAAGAGGAGAGGGCAAUGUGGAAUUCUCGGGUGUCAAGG: -1.28
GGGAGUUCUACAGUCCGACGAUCACCAUGCAGGUGGGCAUCUUUGGGAAGGGGGGCAAGGGGGGGAUAGGGAGGGGGGUAACACUUUGGGAACAGGUGGUCCCAGGUCGUUUCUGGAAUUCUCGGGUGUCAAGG: 1.16
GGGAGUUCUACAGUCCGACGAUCCACAGACAACACGCACCCACACAGACACAGAGGGAAGGGGUUGGGAUGGGGACAGGGUGCACAGCAGGGCGGGGUAGGACCCCCGCCCCUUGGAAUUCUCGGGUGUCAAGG: 1.92
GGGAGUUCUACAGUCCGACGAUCUGGCCCUGGUGGCAUGCGGGGAGGAAGAGGUGGCCUCAUGGAUCGUGGUGGUCCCGGUGGAAUGUUCAUAGGUGGCCGUGGUGGAGACAGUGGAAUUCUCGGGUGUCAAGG: 0.132

Block 8 — method: protein-binding microarray; form: hairpin DNA; matrix: in vitro; concentration: not given; reference: not given; direction: higher = stronger binding; measurement: median fluorescence; constant ends, left off below: GAGGCCA … TGGCCTCACACTC
Target: Protein C-ets-1, full length (ETS1, Homo sapiens, UniProt P14921, residues 1-441)
Notes: whole hairpin DNA, median over replicate spots
Residues (chain): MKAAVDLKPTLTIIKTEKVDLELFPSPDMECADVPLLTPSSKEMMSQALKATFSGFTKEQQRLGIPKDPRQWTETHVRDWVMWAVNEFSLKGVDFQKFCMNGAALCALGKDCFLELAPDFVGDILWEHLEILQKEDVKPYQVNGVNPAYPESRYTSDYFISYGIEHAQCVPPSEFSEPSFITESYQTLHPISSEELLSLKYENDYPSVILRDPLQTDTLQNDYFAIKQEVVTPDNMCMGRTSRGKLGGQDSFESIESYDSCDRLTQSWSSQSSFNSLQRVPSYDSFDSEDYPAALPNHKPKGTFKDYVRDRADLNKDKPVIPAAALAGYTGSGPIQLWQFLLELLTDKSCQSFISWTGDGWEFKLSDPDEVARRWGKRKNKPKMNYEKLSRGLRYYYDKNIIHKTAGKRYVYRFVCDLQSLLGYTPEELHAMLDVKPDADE
GCCGGGAGTTGCCTCCTGGCAACTCCCGGC: 558 a.u.
GCCGGAAGGTGCCTCCTGGCACCTTCCGGC (5mC at 29): 2750 a.u.
GTCGGAAGTTGCCTCCTGGCAACTTCCGAC (5mC at 33): 1610 a.u.
GCGGGAAGTTGCCTCCTGGCAACTTCCCGC (5mC at 9 35): 1250 a.u.
GCCGAAAGTTGCCTCCTGGCAACTTTCGGC: 566 a.u.
GTTGGAAGTTGCCTCCTGGCAACTTCCAAC: 646 a.u.
CGCGGAAGTTGCCTCCTGGCAACTTCCGCG (5mC at 8): 3290 a.u.
GCCGGAAGTTGCCTCCTGGCAACTTCCGGC (5mC at 34): 9110 a.u.
GTCGGCGGTTGCCTCCTGGCAACCGCCGAC (5mC at 13 31): 547 a.u.
GCCGGGAGTTGCCTCCTGGCAACTCCCGGC (5mC at 32): 562 a.u.
GTCCGAAGTTGCCTCCTGGCAACTTCGGAC (5mC at 33): 512 a.u.
GTCGGAAGTTGCCTCCTGGCAACTTCCGAC (5mC at 37): 3220 a.u.
GTCGGAAGGTGCCTCCTGGCACCTTCCGAC: 887 a.u.
GTCGGAACGTGCCTCCTGGCACGTTCCGAC (5mC at 15 29): 602 a.u.
GCCGGAAGCTGCCTCCTGGCAGCTTCCGGC: 6420 a.u.
GCCGGAATTTGCCTCCTGGCAAATTCCGGC: 1330 a.u.
GCCGGAAGTTGCCTCCTGGCAACTTCCGGC (5mC at 33): 4790 a.u.

Some of these lines once more (block 2):
H13A: 0.572
H13G: 1.13
L7V: 0.101
D12E: 0.355
T11S: 0.673
D8N: 1.13
V3A: 0.879
P1D: 0.352
V3Q: 0.244
T11I: 0.0939
E10G: 0.863
V3G: -0.235
V3L: 0.384
R5I: 0.112
P2N: 0.354
T11W: 0.673
R6K: -0.0497
